# Measured values of several laboratories.
# Each numbered part is a random draw from the data of one study; scales do not carry over between parts.
# Sequence of UniProt Q9H093 (whole entry, looked up): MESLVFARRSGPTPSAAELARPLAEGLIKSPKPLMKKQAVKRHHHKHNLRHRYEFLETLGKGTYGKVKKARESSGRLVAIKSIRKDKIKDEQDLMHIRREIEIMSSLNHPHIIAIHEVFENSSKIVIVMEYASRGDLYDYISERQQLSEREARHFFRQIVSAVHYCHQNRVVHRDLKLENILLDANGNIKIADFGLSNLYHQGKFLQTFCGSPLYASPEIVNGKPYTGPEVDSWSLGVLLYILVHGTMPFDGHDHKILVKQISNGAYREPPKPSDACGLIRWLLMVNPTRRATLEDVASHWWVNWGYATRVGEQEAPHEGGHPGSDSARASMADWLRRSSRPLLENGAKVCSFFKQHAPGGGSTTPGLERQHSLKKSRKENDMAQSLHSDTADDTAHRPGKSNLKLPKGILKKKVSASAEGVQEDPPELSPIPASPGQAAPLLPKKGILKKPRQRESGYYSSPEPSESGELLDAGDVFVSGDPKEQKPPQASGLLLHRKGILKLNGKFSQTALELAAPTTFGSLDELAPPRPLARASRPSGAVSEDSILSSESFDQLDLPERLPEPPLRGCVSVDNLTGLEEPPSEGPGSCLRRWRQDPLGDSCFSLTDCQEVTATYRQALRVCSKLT
# Sequence of UniProt Q8IY84 (whole entry, looked up): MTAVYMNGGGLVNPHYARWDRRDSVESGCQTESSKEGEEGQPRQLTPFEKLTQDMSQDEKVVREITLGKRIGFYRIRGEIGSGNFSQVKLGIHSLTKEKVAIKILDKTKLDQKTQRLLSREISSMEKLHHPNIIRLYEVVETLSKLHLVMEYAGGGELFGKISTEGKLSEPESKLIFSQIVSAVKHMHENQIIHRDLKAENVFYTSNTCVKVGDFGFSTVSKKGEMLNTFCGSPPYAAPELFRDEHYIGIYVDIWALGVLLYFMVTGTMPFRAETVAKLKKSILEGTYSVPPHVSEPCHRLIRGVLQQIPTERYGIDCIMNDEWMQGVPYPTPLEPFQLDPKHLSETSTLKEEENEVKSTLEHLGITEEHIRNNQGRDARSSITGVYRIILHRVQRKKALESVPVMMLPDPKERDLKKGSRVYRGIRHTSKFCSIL
# Sequence of UniProt Q9UK32 (whole entry, looked up): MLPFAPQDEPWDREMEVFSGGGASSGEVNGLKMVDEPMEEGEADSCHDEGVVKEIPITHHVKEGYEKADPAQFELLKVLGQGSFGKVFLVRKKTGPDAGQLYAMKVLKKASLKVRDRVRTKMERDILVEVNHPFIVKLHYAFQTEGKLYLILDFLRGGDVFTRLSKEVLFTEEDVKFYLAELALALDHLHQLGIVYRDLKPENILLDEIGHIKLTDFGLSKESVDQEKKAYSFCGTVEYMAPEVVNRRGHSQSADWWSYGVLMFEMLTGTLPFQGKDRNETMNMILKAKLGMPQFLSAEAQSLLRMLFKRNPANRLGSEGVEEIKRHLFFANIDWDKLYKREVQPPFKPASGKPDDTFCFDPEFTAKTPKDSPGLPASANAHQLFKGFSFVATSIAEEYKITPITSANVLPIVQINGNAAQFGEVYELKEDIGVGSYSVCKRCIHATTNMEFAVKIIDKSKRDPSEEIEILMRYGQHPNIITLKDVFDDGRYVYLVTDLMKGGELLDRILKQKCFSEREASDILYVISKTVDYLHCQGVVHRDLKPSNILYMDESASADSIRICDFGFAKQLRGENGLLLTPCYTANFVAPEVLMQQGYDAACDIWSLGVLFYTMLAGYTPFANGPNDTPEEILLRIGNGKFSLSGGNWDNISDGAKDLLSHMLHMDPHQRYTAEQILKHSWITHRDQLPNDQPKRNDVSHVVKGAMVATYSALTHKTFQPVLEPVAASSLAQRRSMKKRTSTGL
# Sequence of UniProt P37173 (whole entry, looked up): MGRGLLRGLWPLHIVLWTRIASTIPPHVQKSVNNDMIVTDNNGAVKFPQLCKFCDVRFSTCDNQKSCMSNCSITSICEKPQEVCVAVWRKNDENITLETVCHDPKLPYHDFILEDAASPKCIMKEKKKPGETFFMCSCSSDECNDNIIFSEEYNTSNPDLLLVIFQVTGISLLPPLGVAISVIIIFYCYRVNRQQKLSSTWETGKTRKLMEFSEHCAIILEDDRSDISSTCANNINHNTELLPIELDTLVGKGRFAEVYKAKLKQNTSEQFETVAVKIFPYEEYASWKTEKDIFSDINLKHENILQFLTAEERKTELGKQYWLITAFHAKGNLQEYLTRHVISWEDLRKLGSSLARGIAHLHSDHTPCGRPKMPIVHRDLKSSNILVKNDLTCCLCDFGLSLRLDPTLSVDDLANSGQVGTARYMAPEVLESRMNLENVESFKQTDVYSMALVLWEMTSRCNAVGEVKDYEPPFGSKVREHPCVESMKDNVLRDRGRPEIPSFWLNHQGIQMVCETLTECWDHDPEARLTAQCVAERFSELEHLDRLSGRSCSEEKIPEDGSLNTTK
# Sequence of UniProt Q13464 (whole entry, looked up): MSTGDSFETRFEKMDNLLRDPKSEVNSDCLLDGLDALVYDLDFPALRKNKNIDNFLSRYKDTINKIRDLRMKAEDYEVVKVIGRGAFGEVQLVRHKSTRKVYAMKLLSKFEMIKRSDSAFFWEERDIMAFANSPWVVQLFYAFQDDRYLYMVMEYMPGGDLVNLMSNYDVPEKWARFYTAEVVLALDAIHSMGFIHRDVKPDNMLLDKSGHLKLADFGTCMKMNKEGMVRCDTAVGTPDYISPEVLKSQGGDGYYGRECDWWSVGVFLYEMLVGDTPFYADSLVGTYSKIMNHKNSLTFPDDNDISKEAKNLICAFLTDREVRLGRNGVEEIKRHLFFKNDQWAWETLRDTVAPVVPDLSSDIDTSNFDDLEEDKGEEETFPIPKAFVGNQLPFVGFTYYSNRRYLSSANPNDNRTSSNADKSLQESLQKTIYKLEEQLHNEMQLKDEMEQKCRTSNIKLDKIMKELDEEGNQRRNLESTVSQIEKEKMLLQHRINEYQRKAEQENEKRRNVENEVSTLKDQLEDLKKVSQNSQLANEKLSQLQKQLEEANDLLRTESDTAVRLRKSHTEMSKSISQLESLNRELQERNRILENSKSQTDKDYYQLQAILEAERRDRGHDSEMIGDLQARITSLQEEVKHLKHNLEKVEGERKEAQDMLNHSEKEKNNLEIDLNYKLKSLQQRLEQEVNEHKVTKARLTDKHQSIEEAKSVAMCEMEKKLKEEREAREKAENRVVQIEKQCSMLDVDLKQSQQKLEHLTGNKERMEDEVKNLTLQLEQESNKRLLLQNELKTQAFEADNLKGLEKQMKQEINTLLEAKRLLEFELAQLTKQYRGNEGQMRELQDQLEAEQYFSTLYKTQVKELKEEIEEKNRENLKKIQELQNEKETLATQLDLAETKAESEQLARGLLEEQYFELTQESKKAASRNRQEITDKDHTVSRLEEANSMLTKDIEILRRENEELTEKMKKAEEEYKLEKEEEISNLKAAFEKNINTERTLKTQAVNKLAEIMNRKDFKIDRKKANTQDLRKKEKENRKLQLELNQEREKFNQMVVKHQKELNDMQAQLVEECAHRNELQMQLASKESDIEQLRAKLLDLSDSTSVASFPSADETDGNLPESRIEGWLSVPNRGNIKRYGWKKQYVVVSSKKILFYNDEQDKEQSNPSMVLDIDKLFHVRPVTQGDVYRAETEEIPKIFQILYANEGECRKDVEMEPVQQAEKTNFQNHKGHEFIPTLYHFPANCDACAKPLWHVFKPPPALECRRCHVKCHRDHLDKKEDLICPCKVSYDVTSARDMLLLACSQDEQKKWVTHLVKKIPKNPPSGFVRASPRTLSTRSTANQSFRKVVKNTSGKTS

# Set 1 — effect on: enzyme activity; action: inhibitor; concentration: 0.5 µM; baseline: control
# Target: Insulin receptor-related protein (INSRR, Homo sapiens, UniProt P14616)
# Sequence of UniProt P14616 (whole entry, looked up): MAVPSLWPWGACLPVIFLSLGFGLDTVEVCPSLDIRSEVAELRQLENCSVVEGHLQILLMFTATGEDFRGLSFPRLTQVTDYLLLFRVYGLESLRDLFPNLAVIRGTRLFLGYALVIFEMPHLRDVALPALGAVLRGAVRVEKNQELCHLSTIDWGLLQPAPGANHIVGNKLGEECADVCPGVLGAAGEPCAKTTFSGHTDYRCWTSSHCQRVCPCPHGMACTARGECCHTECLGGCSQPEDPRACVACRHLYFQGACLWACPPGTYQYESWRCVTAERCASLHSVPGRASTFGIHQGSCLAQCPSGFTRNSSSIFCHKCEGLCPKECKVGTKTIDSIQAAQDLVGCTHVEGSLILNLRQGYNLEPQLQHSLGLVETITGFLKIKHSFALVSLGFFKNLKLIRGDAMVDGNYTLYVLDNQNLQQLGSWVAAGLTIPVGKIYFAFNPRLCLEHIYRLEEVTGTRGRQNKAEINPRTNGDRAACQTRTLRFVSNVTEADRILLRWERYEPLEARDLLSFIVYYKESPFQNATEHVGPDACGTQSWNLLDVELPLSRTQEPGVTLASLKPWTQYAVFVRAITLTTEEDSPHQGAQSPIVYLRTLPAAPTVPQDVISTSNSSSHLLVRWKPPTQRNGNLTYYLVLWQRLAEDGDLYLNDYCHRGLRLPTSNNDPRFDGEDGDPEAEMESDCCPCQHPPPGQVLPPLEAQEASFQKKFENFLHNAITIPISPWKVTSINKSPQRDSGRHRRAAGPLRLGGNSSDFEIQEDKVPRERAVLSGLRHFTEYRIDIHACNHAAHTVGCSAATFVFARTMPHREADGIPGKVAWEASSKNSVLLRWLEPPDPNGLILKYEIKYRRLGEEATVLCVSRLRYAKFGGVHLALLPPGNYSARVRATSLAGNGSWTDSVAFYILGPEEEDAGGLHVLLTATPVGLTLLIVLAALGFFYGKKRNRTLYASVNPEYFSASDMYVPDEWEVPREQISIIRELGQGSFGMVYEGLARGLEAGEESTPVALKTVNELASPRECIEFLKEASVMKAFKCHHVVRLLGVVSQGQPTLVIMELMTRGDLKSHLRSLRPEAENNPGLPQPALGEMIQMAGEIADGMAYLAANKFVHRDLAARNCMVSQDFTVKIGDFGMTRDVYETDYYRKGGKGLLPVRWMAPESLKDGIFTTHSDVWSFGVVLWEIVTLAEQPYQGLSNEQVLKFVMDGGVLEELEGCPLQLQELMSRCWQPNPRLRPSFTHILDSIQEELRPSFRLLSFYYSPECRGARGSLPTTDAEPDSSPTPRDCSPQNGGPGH
SMILES,remaining activity
CCN(CC)C(=O)c1ccc(Nc2nc(OCC3CCCCC3)c3[nH]cnc3n2)cc1,80.8%
Nc1cccc(-c2cc3c(Oc4cccc(O)c4)ncnc3[nH]2)c1,96.3%
Cn1nc2c3c(cccc31)C(=O)c1ccccc1-2,82.7%
COc1cc2ncnc(Nc3cccc(Cl)c3)c2cc1OC,99%
C[C@@H]1CCN(C(=O)CC#N)C[C@@H]1N(C)c1ncnc2[nH]ccc12,97.5%
O=C1C(Cl)=C(N2C(=O)CCC2=O)C(=O)c2ccccc21,96.9%

# Set 2 — cell line: mouse MPNST tumor cells; technique: high-content immunofluorescence imaging; item: nuclear SOX9; concentration: 10 µM; time: 12 h; notes: mean of 2 replicates; baseline: DMSO control; direction: higher = more nuclear SOX9
Compound,nuclear SOX9 intensity
CC1(C)O[C@@H]2C[C@H]3[C@@H]4C[C@H](F)C5=CC(=O)CC[C@]5(C)[C@H]4[C@@H](O)C[C@]3(C)[C@]2(C(=O)CO)O1,66.4 % of DMSO
C=CCc1cccc(/C=N/NC(=O)CN2CCN(Cc3ccccc3)CC2)c1O,138 % of DMSO
CC(ONC(=O)c1cc(C(F)(F)F)cc(C(F)(F)F)c1)C(=O)Nc1ccc(Cl)cc1 (centres unmarked),96.7 % of DMSO
CC[C@@H]1Cn2c(c3nc(-c4cc(Cl)cc(Cl)c4Cl)nc-3n(C)c2=O)N1,91 % of DMSO
O=C(OCC(O)CO)c1ccccc1Nc1ccnc2cc(Cl)ccc12 (centres unmarked),117 % of DMSO
CC1c2cccc(O)c2C(O)=C2C(=O)C3(O)C(O)=C(C(N)=O)C(=O)C(N(C)C)C3C(O)C21 (centres unmarked),93.6 % of DMSO
Nc1ncnc2c1ncn2[C@@H]1O[C@H](CO)C[C@H]1O,118 % of DMSO

# Set 3 — effect on: cell-free assay; technique: competition with immobilised ligand; concentration: 0.1 µM
# SMILES: O=C(NCCCC1CCCCC1)c1ccc(CNC(=O)c2cnn(-c3ccccc3)c2C(F)(F)F)cc1
target,remaining binding [%]
"Activin receptor type-1B (ACVR1B, Homo sapiens, UniProt P36896)",100
"Tyrosine-protein kinase Tec (TEC, Homo sapiens, UniProt P42680)",94
"Receptor-type tyrosine-protein kinase FLT3 (FLT3, Homo sapiens, UniProt P36888, N841I)",88
"Dual specificity mitogen-activated protein kinase kinase 4 (MAP2K4, Homo sapiens, UniProt P45985)",100
"Tyrosine-protein kinase Fes/Fps (FES, Homo sapiens, UniProt P07332)",100
"Rho-associated protein kinase 1 (ROCK1, Homo sapiens, UniProt Q13464)",100
"Mitogen-activated protein kinase kinase kinase 7 (MAP3K7, Homo sapiens, UniProt O43318)",89
"Cyclin-dependent kinase 2 (CDK2, Homo sapiens, UniProt P24941)",96
"Ribosomal protein S6 kinase alpha-6, C-terminal kinase domain (RPS6KA6, Homo sapiens, UniProt Q9UK32)",92
"Epidermal growth factor receptor (EGFR, Homo sapiens, UniProt P00533, del747-752/P753S)",100
"Serine/threonine-protein kinase TAO3 (TAOK3, Homo sapiens, UniProt Q9H2K8)",99
"cAMP-dependent protein kinase catalytic subunit PRKX (PRKX, Homo sapiens, UniProt P51817)",100
"Phosphatidylinositol 4,5-bisphosphate 3-kinase catalytic subunit alpha isoform (PIK3CA, Homo sapiens, UniProt P42336, I800L)",70
"NUAK family SNF1-like kinase 2 (NUAK2, Homo sapiens, UniProt Q9H093)",100
"Serine/threonine-protein kinase NIM1 (NIM1K, Homo sapiens, UniProt Q8IY84)",70
"Serine/threonine-protein kinase pim-2 (PIM2, Homo sapiens, UniProt Q9P1W9)",100
"TGF-beta receptor type-2 (TGFBR2, Homo sapiens, UniProt P37173)",100

# Set 4 — cell line: Huh-7; concentration: 10 µM; time: 24 h
SMILES,viability [%]
CCN(CC)CCOc1ccc2c(c1)C(=O)c1cc(OCCN(CC)CC)ccc1-2,92.4
O=C(/C=C/C=C/c1ccc2c(c1)OCO2)N1CCCCC1,98.9
Cc1ccc(/C(=C\CN2CCCC2)c2ccccn2)cc1,99

# Mixed results — cell line: A-375; concentration: 100 µM; time: 60 h
Structure (SMILES),viability [%]
CC(=O)Nc1ccccc1,107
CNC(=O)c1c(C)oc2cc(Oc3ncnc4cc(OC)c(OC)cc34)ccc12,95.1

# For quick reference, copied from above (set 3):
target,remaining binding [%]
"Receptor-type tyrosine-protein kinase FLT3 (FLT3, Homo sapiens, UniProt P36888, N841I)",88
"Dual specificity mitogen-activated protein kinase kinase 4 (MAP2K4, Homo sapiens, UniProt P45985)",100
"Tyrosine-protein kinase Fes/Fps (FES, Homo sapiens, UniProt P07332)",100
